Measurements pooled from the literature.
A part holds a random share of what one study measured.

Series 1 — technique: universal PBM; form: double-stranded DNA, one strand shown; sample: in vitro; concentration: not given; direction: higher = stronger binding; measurement: E-score
Target: Sal-like protein 4, full length isoform B (SALL4, Homo sapiens, UniProt Q9UJQ4-2, residues 1-616)
Setting: 8-mer, flanks averaged, mean of replicates
AAGAATCT: -0.0175
CCTAAGCC: -0.296
GCTGCCCA: -0.31

Series 2 — technique: protein binding microarray; form: double-stranded DNA, one strand shown; sample: in vitro; concentration: not given; baseline: not given; direction: higher = stronger binding; measurement: E-score
Target: Histone acetyltransferase KAT6A, winged helix 1, GST fusion (KAT6A, Homo sapiens, UniProt Q92794, residues 1-85)
Setting: 8-mer, flanks averaged, mean of 2 arrays, mostly near background
Construct (chain): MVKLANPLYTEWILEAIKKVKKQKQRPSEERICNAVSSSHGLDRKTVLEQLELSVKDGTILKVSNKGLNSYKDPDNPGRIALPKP
CGGGATTA: 0.336
AAGTATCA: -0.206
AGCGGCTC: 0.306

Series 3 — technique: competition protein-binding microarray; form: double-stranded DNA, one strand shown; sample: in vitro; concentration: 2 µM; added: Cbf1 competitor, 0.05 µM; direction: higher = stronger binding; measurement: fluorescence intensity
Target: Phosphate system positive regulatory protein PHO4, full length, GST-tagged (PHO4, Saccharomyces cerevisiae, UniProt P07270, residues 1-312)
Setting: whole 60-bp probe, lowest competitor level
Construct (chain): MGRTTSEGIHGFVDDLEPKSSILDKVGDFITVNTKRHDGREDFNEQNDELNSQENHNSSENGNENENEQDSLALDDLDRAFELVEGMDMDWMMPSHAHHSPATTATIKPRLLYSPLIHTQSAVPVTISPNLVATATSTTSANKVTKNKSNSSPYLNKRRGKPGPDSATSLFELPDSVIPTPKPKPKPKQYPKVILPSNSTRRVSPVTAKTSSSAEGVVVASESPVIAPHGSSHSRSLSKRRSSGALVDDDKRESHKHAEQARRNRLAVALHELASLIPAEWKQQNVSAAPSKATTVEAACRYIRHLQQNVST
AAGGTAATGGTATGGCTCGTGACGGATTTACCCAACGTCTTGATTCGCTTGACGCTGCTG: 6830 a.u.
TGCGCAACAACTTTCCACGTGTTTTTATGTCTAGAAGTCTTGATTCGCTTGACGCTGCTG: 16600 a.u.
TGGGGCCCGCCGTCCAACGTGCGGATACCGTACCCTGTCTTGATTCGCTTGACGCTGCTG: 10000 a.u.
CTTCTGTAAATTTTTCACGTGTTCTGACGCGCCCCGGTCTTGATTCGCTTGACGCTGCTG: 13300 a.u.

Mixed results
PhoQ, residues 284 288 289 292 302 303 SLGVVW
fold induction (PhoP, residues 12 14 15 18 19 NQGLL (Escherichia coli, UniProt P23836); Sort-seq, measured: YFP reporter; E. coli; PhoQ-PhoP variant library, added: 10 µM Mg2+; baseline: high Mg2+ state, higher = stronger signaling): 12.8
